# Published values from different studies.
# A part holds a random share of what one study measured.

# Set 1
# Target: Ras GTPase-activating protein-binding protein 1, RRM domain (G3BP1, Homo sapiens, UniProt Q13283)
# Chain of UniProt Q13283 (whole entry, looked up): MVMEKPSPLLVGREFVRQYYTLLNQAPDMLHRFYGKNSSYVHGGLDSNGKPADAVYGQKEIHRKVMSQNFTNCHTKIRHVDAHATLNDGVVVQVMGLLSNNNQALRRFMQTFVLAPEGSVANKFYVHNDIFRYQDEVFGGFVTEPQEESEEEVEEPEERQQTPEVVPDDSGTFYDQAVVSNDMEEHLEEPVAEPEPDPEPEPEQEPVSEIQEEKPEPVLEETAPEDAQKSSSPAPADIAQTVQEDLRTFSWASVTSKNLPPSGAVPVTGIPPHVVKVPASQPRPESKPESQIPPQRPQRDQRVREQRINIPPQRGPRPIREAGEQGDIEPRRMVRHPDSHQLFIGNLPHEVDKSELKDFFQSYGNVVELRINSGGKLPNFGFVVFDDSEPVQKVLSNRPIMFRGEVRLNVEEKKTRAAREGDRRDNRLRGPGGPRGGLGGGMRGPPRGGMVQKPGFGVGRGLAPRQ
# Method: RNA Bind-n-Seq
# Molecule type: RNA
# Medium: in vitro
# Tested at: 1 µM
# Setting: whole 134-nt RNA, ends assumed
# With: 150 mM KCl
# Relative to: input library
# Reading: higher = stronger binding
# All sequences stand within: GGGAGUUCUACAGUCCGACGAUC … UGGAAUUCUCGGGUGUCAAGG
Sequence,log2 enrichment
UCAAGUCCUGUGCUACACAUCGUAUGUACCGAAUCGGGUGGGUUUUUGGGUGGGAAAGUAUUAUGUUACGCCGUUCGGAUCUGCACUUCC,0.369
GUCCUGUGCUACACAUCGUAUGUACCGAAUCGGGGUUUUUGGGGUUUUUGGGGAGGGGAAAGUAUUAUGUUACGCCGUUCGGAUCUGCAC,0.941
CUGUGCUACACAUCGUAUGUACCGAAUCGGGGCCCCCCCGGGCCCCCCCGGCCCCCCCGGGGAAAGUAUUAUGUUACGCCGUUCGGAUCU,-0.549
UCCUGUGCUACACAUCGUAUGUACCGAAUCGGGGAAAAAAAGGGGUGGGGUUUUUGGGGAAAGUAUUAUGUUACGCCGUUCGGAUCUGCA,0.761
UUGUAUUAAGACAACGCUCCUCGACUUAGAUGCCUUGGCAAGACAUUUGGCUGACUGUAUUCGAAGGUAAAAUUUGAUGUGAAAUUGACA,0.352
AAGUCCUGUGCUACACAUCGUAUGUACCGAAUCGGGAAAAAGGGAGGGUUUUUGGGAAAGUAUUAUGUUACGCCGUUCGGAUCUGCACUU,0.645
AGUCCUGUGCUACACAUCGUAUGUACCGAAUCGGGGCCCCGGGGCCCCGGGCCCCGGGAAAGUAUUAUGUUACGCCGUUCGGAUCUGCAC,-1.34
UUCCUCAAGUCCUGUGCUACACAUCGUAUGUACCGAAUCGGGUGGUGGUGGAAAGUAUUAUGUUACGCCGUUCGGAUCUGCACUUCCAGC,-0.21
CACAGACAACACGCACCCACACAGACACAGAGGGAAGGGGUUGGGAUGGGGACAGGGUGCACAGAAAGGCGGGGUAGGACCCCAGCCCCU,-0.066
UCUAUCCUGUCCCUCCACCCCACCCUCCACCUCAAUCCCCUCCCAUCUUCCCCAGACCUACCUCACCUACUAGGACCUGAGGCAGCUCCU,-0.327
AGUCCUGUGCUACACAUCGUAUGUACCGAAUCGGCCCCCGGCCCCCGGGCCCCCGGGAAAGUAUUAUGUUACGCCGUUCGGAUCUGCACU,-0.486
CCUCAAGUCCUGUGCUACACAUCGUAUGUACCGAAUCGGUGGAAAGGAAAGGAAAGUAUUAUGUUACGCCGUUCGGAUCUGCACUUCCAG,-0.122
CCUGUGCUACACAUCGUAUGUACCGAAUCAAAGUGUGUGUGUGUGAAAUGUGUGUGUGAAAAAAGUAUUAUGUUACGCCGUUCGGAUCUG,-0.129
GUCCUGUGCUACACAUCGUAUGUACCGAAUCGGAAAAAAAGGAAAAAAAGGUUUUUGGAAAGUAUUAUGUUACGCCGUUCGGAUCUGCAC,-0.111

# Set 2
# Target: RNA binding protein fox-1 homolog 2, RRM domain, GST-SBP tag (RBFOX2, Homo sapiens, UniProt O43251-10, residues 100-194)
# Method: RNA Bind-n-Seq
# Molecule type: RNA
# Medium: in vitro
# Tested at: 365 nM
# Setting: natural RNA segment, single round, ends assumed
# Relative to: no-protein control
# Reading: higher = stronger binding
# All sequences stand within: GGGAGUUCUACAGUCCGACGAUC … UGGAAUUCUCGGGUGCCAA
# Construct (chain): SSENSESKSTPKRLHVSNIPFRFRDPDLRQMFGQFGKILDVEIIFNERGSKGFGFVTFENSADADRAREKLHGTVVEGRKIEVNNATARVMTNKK
Sequence,RBNS enrichment (R)
UGAACUUUUUGUAGGGGACGAGAAAGAUCAUUGAAAUUCUGAGAAAACUUCUUUUAAACCUCACCUUUGUGGGGUUUUUGGAGAAGGUUAUCAAAAAUUUCAUGGAAGGA,1
AUGGUCUUGCCAGCAUAGGCUUGCUAGUUCCUUCUUGGUCAGAGGUAGCUGCAGAGGGGGGAGGCCAAGGGUUUGGUCUAAGCUGUGCCCUGCCACCUGGCAGGAGGCCC,0.455
UUCAGUAGUGCCAGCAAGUGGGGGAAACUUUCAGUAUUGCGCUAGGUCAACACUUCCUGCUGCAUUUCCUUCCCUUUGCACAGCUUGAAGAAAUAGAGUAGACAGAAUCA,0.613
UGUGGGUGGACUCUAAGUUGGCAAACCAAGGAUUUAGGGAGUGGCCUAGUCAACAUAAUUCUUUAAGAAAGGAAGGAGAAAAGCUGUGUCCAUAGUGACUGUUUGAAGCU,0.911
AGGCCAAGCCUCAGCAGGAAAGUGCAGUAGAAGAUACUGUUUUACAGACAAGUCCUGUGUAACCUGCUUUAAAUGCUACACAUGUUAAUAAAAUGCUUAUUUGGUUAGCU,0.364
AAUCCCUGCUAAGCCUCUACUCUGCAGGGAGACGCGACUGGCGGCUCCAGCAGGAACUACCUUUCUGAACCCGCGGAGACCCGCAUAAGCCUGACCCCUUGCUUCCUCCC,0.359
AUAUAAAGUUAAGUUAACAUACUAACAUUUCUCCUUUGGAGGAAGUUUUAAUCUACUUCAGGAUGCAUAUUAUUAUCAAGAUACUUUCAUAUACAGGAUAGCCUAAUUUU,0.354
UUUCUACCAGACAGCGAAGCACCCCUUUGCUUCCCAUGCGACUUCAAGAAGGUUUCCUAUACUAUACAUAUAUAUACGUUCUGGUUGGCAAGCCCUGCUGAUCAGAGAAA,0.278
CAGGCGGGACUCGUGUCCCAGAGAGGAAGGGGCUGCUGAGGUCUGAUGGGGCCCUUCCUCCGGGUGACCCCACAGGGCCUUUCCAAGCCCCCAUUUGAGCUGCUCCUUCC,0.2
CUAAGUUAUUGUCAAAACUGGGCAGGAGACAGGAGAUUGGAGUGGUCUCUGCUGGGGUGUCUGACCCUCCACCACCUCACCUUGUUGGUACCUCCCUCCCUGAAUUCCUG,0.401
CCAGCGCCCCCGGGCACUGCUGCUCAUAGGUACCUUUCCACUGCCUCCUCCCUGCUCUCCUGUGCAGGAAUGUCUCUGAGCUGUUCACGUUGAUGCUUCUUGGUUGGCAA,0.763
UAUGGUUUGCACUUUUUAAUCUAAAUUCAUCCCUUCUAAGUGAGGUUUGCUCAUACAGCAUUUGGAUACUAAGCCAUUAUUUGCCGCUGUUGGUACUUAUACAAAGAAAA,0.887

# Set 3
# Target: Centromere-binding protein 1, full length, His-tagged (CBF1, Saccharomyces cerevisiae, UniProt P17106, residues 1-351)
# Chain of UniProt P17106 (whole entry, looked up): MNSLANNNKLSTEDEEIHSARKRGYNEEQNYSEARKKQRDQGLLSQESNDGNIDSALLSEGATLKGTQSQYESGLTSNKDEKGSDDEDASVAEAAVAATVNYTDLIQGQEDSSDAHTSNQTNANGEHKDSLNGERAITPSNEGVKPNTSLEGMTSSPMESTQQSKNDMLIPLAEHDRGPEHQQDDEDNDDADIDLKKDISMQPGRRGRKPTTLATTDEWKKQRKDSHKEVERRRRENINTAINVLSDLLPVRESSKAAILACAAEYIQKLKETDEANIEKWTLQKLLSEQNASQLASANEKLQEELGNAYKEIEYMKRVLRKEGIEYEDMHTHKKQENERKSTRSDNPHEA
# Method: competition protein-binding microarray
# Molecule type: double-stranded DNA, one strand shown
# Medium: in vitro
# Tested at: 2 µM
# Setting: whole 60-bp probe, lowest competitor level
# With: Pho4 competitor, 0.05 µM
# Reading: higher = stronger binding
# All sequences stand within: … GTCTTGATTCGCTTGACGCTGCTG
Sequence,fluorescence intensity [a.u.]
GCCATTGGATACCGTCACGTGGGTAATGGTAATCTA,3880
CGGGGTTAAGTTTGAAGAGTGGGTGGCTTGCAGCAG,57.1
ACATAGTCTGATCGGCACGTGAGAAAGTGCCATACC,1120
AAGCGGCCGTTGGCGGCCGTGGGTAAGTTATGCATG,52.2
CTAACGAAGGTTTGCGACGTGGGTGACAAGCCAAGT,75.1
CTACGGATCGCATCGCACGTTTGTTTACAATTGATG,99.9
CCGATATGCAGACATCATGTTCCTGTATTTTTTGAC,85.3
CCCGGACATGTACGCCAGGTGATGTTCCATTTGCCA,90.7
CGTCACCAGCGTCACCACGGGGACCCGCCCCGAAAT,69.9
CATACCCAACCTTGTCACTCCACTTAAGATATTTGT,67.2
CTTTCCCGATCTTGAAACGTGGGTGTAGCACATTTG,88.6
CCTCAGGAGCGCCGCCATGTGGGATGGAATAGCACA,63.2
GTCTTGTCTCATTTTCACGTGGCGTTCCCCACTTCA,569
ATACTTGCATTCGACCACGTGCTTTGGCATGTATCT,2290
AAAGCGGTAATTTGACCAGTGGGTGCAGATATCTAT,64.1
CGCTTCATATAATGTTTTTTGATTTGCAGCAAATGC,95.2
TGAAAAACTGCTTGATTCGTGCTTTTAACTCAGAGG,60.9
AAGGTCTATGTTCTTCACGTGATGGAGAGGACTATA,2510

# Set 4
# Target: Interferon regulatory factor 5, full length, phosphomimetic (IRF5, Homo sapiens, UniProt Q13568-2, residues 1-514, K96S/S451D/S453D/S456D/S462D)
# Method: protein-binding microarray
# Molecule type: double-stranded DNA, one strand shown
# Medium: in vitro
# Tested at: 250 nM
# Setting: 60-bp whole probe
# With: salmon DNA 0.4 mg/ml
# Relative to: random background probes
# Reading: higher = stronger binding
# All sequences stand within: GCCTAGCAC … GTCTTGATTCGCTTGACGCTGCTG
Sequence,log fluorescence
TTAGGTTCCAGTTTCGGTTAGTGCTAG,10.5 z-score
TTAGATCTCGGGTATCGATTAGTGCTA,2.85 z-score
TTAGGACTCGGTTTCGGTTAGTGCTAG,8.59 z-score
TTAGGTCTCGGTCGCGGTTAGTGCTAG,0.45 z-score
AAGAATCAGGGGTTTTATCCGTGCTAG,-0.366 z-score
TTAGGACTGGAATATCGGTTAGTGCTA,3.26 z-score
ATCCCATTAAATTTTAATAAGTGCTAG,0.0853 z-score
GACGGTTTCCGTCTCCTGACGTGCTAG,0.901 z-score
GACGGTTTCGGGTTTCGGGGCGTGCTA,7.52 z-score
AGCAAATTATATCTTATATCGTGCTAG,0.729 z-score
TTAGGTTTCGACGCTGGGTTAGTGCTA,5.2 z-score
GACGGACTGGGTACTGGGGACGTGCTA,-0.66 z-score
TACGGTTTCGGACTGGGGACGTGCTAG,3.92 z-score
TTAGGTATCGGGACTGGGTTGGTGCTA,1.7 z-score
TTAGGTATCGGGACTTGGTTAGTGCTA,1.62 z-score
TCAGGTCTCCTTATCCTTTAGTGCTAG,-0.0966 z-score
GACGATTTCAGTCGCGAGACGTGCTAG,0.89 z-score
TCACCTCTGGGATCCCAGACTGTGCTA,-0.588 z-score
GACGGTTTCGGGACTGGGAACGTGCTA,5.08 z-score
TTAGGATTGGGTCTCGGTTAGTGCTAG,0.24 z-score
GACGGTTCCGGTTTCGGGTCGTGCTAG,6.35 z-score
TTAGGACCGCTTTTCCTTTAGTGCTAG,-0.203 z-score
TTTCTGATCCATTTTGGTTTGTGCTAG,5.75 z-score
ATAGGTTTCGGGTTTCGGTTAGTGCTA,9.69 z-score

# For quick reference, copied from above (set 3):
Sequence,fluorescence intensity [a.u.]
CTACGGATCGCATCGCACGTTTGTTTACAATTGATG,99.9
CTAACGAAGGTTTGCGACGTGGGTGACAAGCCAAGT,75.1
GCCATTGGATACCGTCACGTGGGTAATGGTAATCTA,3880
AAAGCGGTAATTTGACCAGTGGGTGCAGATATCTAT,64.1
CCTCAGGAGCGCCGCCATGTGGGATGGAATAGCACA,63.2
CGCTTCATATAATGTTTTTTGATTTGCAGCAAATGC,95.2
